Measured values of several laboratories.
Compare with care: the assays were run in different laboratories. Values joined by “and” are separate records of one study, mostly repeats; a detail may differ. Numbers after ± are the reported error.
UniProt P06239, sequence (whole entry, looked up): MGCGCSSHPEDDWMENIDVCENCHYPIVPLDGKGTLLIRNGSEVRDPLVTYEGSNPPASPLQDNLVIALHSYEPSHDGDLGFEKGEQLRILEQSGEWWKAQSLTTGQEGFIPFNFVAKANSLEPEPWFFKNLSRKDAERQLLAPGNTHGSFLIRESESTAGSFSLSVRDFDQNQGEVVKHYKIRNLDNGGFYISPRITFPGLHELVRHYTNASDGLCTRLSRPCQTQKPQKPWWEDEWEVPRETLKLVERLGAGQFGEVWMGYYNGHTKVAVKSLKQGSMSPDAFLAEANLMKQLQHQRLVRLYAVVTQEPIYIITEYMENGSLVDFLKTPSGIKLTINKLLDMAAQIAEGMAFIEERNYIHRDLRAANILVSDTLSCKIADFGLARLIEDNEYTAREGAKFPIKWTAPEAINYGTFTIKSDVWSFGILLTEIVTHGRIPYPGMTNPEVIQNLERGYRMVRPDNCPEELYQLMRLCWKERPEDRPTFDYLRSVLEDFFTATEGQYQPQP

Compound	tested on	test	test system	conditions	scale	endpoint	value
O=C(N/N=C/c1ccc(C[n+]2ccccc2)cc1)c1cc(C(=O)N/N=C/c2ccc(C[n+]3ccccc3)cc2)ncn1	22CTA telomeric G4-DNA antiparallel	FRET melting		1 µM, K10 buffer, DNA 0.2 µM		ΔTm	2.6 ± 0.6 °C
CNS(=O)(=O)Nc1nccc(Cc2c(C)c3ccc(Oc4ncccc4F)cc3oc2=O)c1F	JHH7	cell viability		7 days		IC50	9.41 nM
Nc1ncc(-c2cc(-c3cnn(CC(F)(F)F)c3)ncc2F)nc1C(=O)NC1CNCC(F)C1 (stereo not shown)	CASK	KINOMEscan		1 µM	relative to: DMSO control	remaining binding	90%
Cc1ncsc1-c1ccc(C(C)NC(=O)C2CC(O)CN2C(=O)C(NC(=O)CCCCCCCCCCN2CCCC(Nc3ncc(Cl)c(Nc4ccccc4S(=O)(=O)C(C)C)n3)C2)C(C)(C)C)cc1 (stereo not shown)	22Rv1	RNA-seq, item: PDE9A mRNA		concentration not given	relative to: DMSO	log2 fold change	-1.85
O=C(N/N=C/c1ccc2c(ccc[n+]2Cc2ccccc2)c1)c1ccc2ccc(C(=O)N/N=C/c3ccc4c(ccc[n+]4Cc4ccccc4)c3)nc2n1	22CTA telomeric G4-DNA antiparallel	FRET melting		1 µM, K10 buffer, DNA 0.2 µM, together with: ds26 10 µM		ΔTm	15.8 ± 0.2 °C
O=c1c(Oc2ccccc2)c(C(F)(F)F)oc2c(O)c(O)ccc12	ROC1-CUL1 E3 subcomplex	Cdc34-ubiquitin discharge		3 µM	relative to: input	Cdc34b-ubiquitin remaining	2.1%
COC1CN([C@H]2CC[C@H]([C@@]3(C)Oc4c(Cl)cc(C(=O)NCc5c(SC)cc(C)[nH]c5=O)c(C)c4O3)CC2)C1		RNA-seq, item: SEPTIN10	human, whole blood	dose not given, 24 h	relative to: pretreatment baseline	log2 fold change	1.84
C=CC(=O)N1[C@@H](c2ccc3c(c2)OCO3)c2[nH]c3ccccc3c2C[C@H]1C(=O)N1CCN(C)CC1	human cyclin E1 wild type-3xFLAG:CDK2	co-IP with TMT proteomics, item: TRIM21		concentration not given, P19474	relative to: wild type DMSO	relative co-enrichment	87%
Cc1nn(-c2cccc(N)c2)c(=O)c2cnc(Nc3ccc(N4CCNCC4)cc3)nc12	LCK (Homo sapiens, UniProt P06239)	enzyme activity, inhibitor				IC50	981 nM
C[n+]1cc(/C=N/NC(=O)c2cncc(C(=O)N/N=C/c3cc4ccccc4[n+](C)c3)n2)cc2ccccc21	22CTA telomeric G4-DNA antiparallel	FRET melting		1 µM, K10 buffer, DNA 0.2 µM, together with: ds26 10 µM		ΔTm	8.2 ± 0.2 °C
C=CC(=O)Nc1cccc(Cn2ncc3cnc(Nc4cnn(CCOC)c4)nc32)c1	human JNK2	KINOMEscan		100 nM	relative to: control	binding	88%
CC(C)Oc1cc(Cl)ccc1CNc1cc(-c2ccccc2)nc2ncnn12	endogenous β-adrenergic receptors	cAMP level, cAMP GloSensor	mock-transfected cells	1 µM, together with: isoprenaline 30 nM	higher = more cAMP	cAMP luminescence	32400 a.u. and 22500 a.u. and 23200 a.u.
c1ccc(-c2n[nH]cc2-c2ccnc3ccccc23)nc1	CMK1 (Candida albicans)	kinase binding, MIB/MS competition	Candida albicans lysate	10 µM	relative to: DMSO	log2 fold change	-0.18

Excerpt of the above:
Compound	tested on	test	test system	conditions	scale	endpoint	value
Cc1nn(-c2cccc(N)c2)c(=O)c2cnc(Nc3ccc(N4CCNCC4)cc3)nc12	LCK (Homo sapiens, UniProt P06239)	enzyme activity, inhibitor				IC50	981 nM
